Measurements gathered from unrelated publications.
Parts stem from different laboratories: compare values within a part only.

Sample 1
Target: Sal-like protein 4, full length isoform A (SALL4, Homo sapiens, UniProt Q9UJQ4, residues 1-1053)
Sequence of UniProt Q9UJQ4 (whole entry, looked up): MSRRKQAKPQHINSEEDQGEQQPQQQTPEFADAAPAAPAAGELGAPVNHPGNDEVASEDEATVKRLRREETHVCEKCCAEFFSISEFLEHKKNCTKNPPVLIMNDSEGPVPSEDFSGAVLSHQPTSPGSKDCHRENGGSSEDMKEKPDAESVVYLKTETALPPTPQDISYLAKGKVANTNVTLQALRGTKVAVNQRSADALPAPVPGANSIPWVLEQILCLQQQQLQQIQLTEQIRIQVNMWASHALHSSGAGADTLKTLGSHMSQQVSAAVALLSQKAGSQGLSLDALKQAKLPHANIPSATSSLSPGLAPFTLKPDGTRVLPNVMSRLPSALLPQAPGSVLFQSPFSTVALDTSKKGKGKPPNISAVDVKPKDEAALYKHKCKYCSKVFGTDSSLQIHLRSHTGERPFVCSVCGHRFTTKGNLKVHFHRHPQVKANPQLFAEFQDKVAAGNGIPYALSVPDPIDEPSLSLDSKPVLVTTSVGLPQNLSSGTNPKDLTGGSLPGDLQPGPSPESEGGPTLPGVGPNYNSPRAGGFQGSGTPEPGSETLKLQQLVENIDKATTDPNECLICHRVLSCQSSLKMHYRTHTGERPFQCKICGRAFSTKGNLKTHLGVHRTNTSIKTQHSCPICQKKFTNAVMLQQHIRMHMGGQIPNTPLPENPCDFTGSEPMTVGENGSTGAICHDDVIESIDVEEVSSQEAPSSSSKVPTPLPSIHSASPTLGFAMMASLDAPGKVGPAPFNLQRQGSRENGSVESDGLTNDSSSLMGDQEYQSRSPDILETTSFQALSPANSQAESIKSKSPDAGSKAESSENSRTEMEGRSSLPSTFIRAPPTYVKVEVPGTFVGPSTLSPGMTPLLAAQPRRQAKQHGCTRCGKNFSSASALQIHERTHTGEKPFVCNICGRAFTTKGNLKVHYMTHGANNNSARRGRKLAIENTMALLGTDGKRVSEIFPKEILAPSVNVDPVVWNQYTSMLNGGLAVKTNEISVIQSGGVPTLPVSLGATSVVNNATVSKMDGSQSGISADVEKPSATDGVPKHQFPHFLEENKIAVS
Technique: universal PBM
Molecule type: double-stranded DNA, one strand shown
Matrix: in vitro
Concentration: 600 nM
Notes: 8-mer, flanks averaged, mean of replicates
Reading: higher = stronger binding
| Oligonucleotide | E-score |
| --- | --- |
| AATTTGGG | 0.166 |
| GATGTTAC | 0.114 |
| AGTAGGAC | -0.0707 |
| GGCGTAAA | -0.0477 |
| CAACTCCG | -0.23 |
| CAAAGAAC | 0.145 |
| CTGAGTAC | -0.157 |
| CCATACCG | -0.125 |
| CTGGGTTA | -0.114 |
| CTGCGCGA | -0.128 |
| TACCGATA | 0.121 |
| ATGCCATA | 0.22 |
| CGTCGCAG | -0.298 |
| ACTTACCA | 0.0701 |
| CCGCTATC | -0.0349 |
| ATCCCGAT | 0.0127 |

Sample 2
Target: Histone acetyltransferase KAT6A, winged helix 1, GST fusion (KAT6A, Homo sapiens, UniProt Q92794, residues 1-85)
Technique: protein binding microarray
Molecule type: double-stranded DNA, one strand shown
Matrix: in vitro
Concentration: not given
Notes: 8-mer, flanks averaged, mean of 2 arrays, mostly near background
Relative to: not given
Reading: higher = stronger binding
Target sequence (chain): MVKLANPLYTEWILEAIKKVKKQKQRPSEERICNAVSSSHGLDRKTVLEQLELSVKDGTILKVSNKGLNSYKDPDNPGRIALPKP
| Oligonucleotide | E-score |
| --- | --- |
| GCCCCCTA | -0.159 |
| CAACCTAC | -0.0867 |
| CTGCTTTA | -0.0715 |
| ACCTCAGA | -0.279 |
| AAGCAGGA | -0.115 |
| CTGTATTC | -0.187 |
| TCAGTAAA | -0.00453 |
| AGTACTAG | -0.0704 |
| TTGAACAA | -0.119 |
| CCCCAGGA | -0.14 |
| ACCCTGCA | -0.171 |
| AAGGAGCT | -0.0077 |
| TAGTGAGA | -0.0943 |
| GACTCTTA | -0.268 |
| AAAGTCCG | 0.161 |
| ACGGGACG | 0.301 |
| ATGTGAGC | -0.00121 |
| CTAAGCAG | -0.0298 |
| AATGCTCT | -0.0572 |
| CCCTAGGC | -0.111 |
| CAAGGGTC | 0.000875 |
| GTACCTGA | -0.0402 |

Sample 3
Target: RNA binding protein fox-1 homolog 2, RRM domain, GST-SBP tag (RBFOX2, Homo sapiens, UniProt O43251-10, residues 100-194)
Technique: RNA Bind-n-Seq
Molecule type: RNA
Matrix: in vitro
Concentration: 365 nM
Notes: natural RNA segment, single round, ends assumed
Relative to: no-protein control
Reading: higher = stronger binding
All sequences stand within: GGGAGUUCUACAGUCCGACGAUC … UGGAAUUCUCGGGUGCCAA
Residues (chain): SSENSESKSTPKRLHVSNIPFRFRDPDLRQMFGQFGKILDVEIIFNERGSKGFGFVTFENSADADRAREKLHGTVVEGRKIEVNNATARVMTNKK
| Oligonucleotide | RBNS enrichment (R) |
| --- | --- |
| GAAAUUACAUGCUUGCCCAACACACUGUGAAAUAGUUACCAAAAUUUGUACAAAUGCAGCAUCUUCAUUCUUUCUGAGAAGACAAGAUGGUUUUCUUUACAUGAACAAAU | 0.533 |
| CUUCUUUGAAUUAAGUGGACUGUGGCAUGACAUUCUGCAAUAUUUUGCUGAAUUGAACACUAUUGUGUCUUAAAUACUUGCACUAAAAAAGUGCACUGCAAGGCCAGAAA | 0.377 |
| AAGAAAGAAUAAUUUCCAUUAAGUAGAAUUCCAGUUGUCUUUCUGUUUCUAAAACACAGAACUUACAAGAGCCACAGGAGCCAAUUAUAGCACCUGACAGAAUACUUCUC | 0.672 |
| GACUCCAACACCCUGGAGUGGUUCCGUCAGACCAUGAGGAGCCAAGACCAGCAGGUCCCACAGCCGACAGUGCCCAGAGCAUGCAGGGAACCCUCGUGCAGCUGAGCUGG | 1.52 |
| GAGGUCAAGGACCUUCCUGUGUAGUUGGUGCAAAAGCAAUCUCCACAGGACAGCACUGCUUCCAUGCUUCAUACAUCAGGAAAUGAGGCCAGAACUUGAGUAUUUACUAA | 0.227 |
| GACCACUUCUGUGUAAGUUUCACCUCCAAGUUUUACCUCCUGUGUCUUCCUCUGCUGUCGAGACGUUCCUGUCUGCUUCCCGGGAGCCUCACGUGCUCCUUGUCCUAACC | 0.298 |
| AAGGUGACCGCCCAGCUCUCCCACAUCCCACUGGAUCUGGCUUACAGGGGGGUCGGAAGCCUGUCCUCACCGUCUCGGGGGUUGUGGCCCCCGCCCCCUCCCUAUAUGCA | 3.39 |
| AAGAACCUCUCUAUGUCCCUUUUUUUAAUUUAAAAAAAAUGACUCUUGUCUAAUAUUCGUCUAUAAGGGAUUAAUUUUCAGACCCUUUAAUAAGUGAGUGCCAUAAGAAA | 0.698 |
| AAGGCCAGGGCAGAGGGCCUCACCGCCUCCCGGGCCUGCUGUCAGCUUGCAGCCCGGGGACAGAGGCCAGCUGGGAUCUGCCUGAGGACAGAGAACAUGGUCUCCUGCAG | 0.517 |
| UUAAACUGGUGAUUUUGGUUGCACUGCUCACUUUAAGAGUUAACAUGCUCACUUGUUAGUAUUUCUGAGUAACAAGAUGGUGACUUCUCCUUGGGGAUCUGGGAGCUGAG | 1.22 |
| UCAUAAAUACAUAACAACCCUCAAAAGUAUAUAGGUACUUUGUCUGAGAAACAUUGAAAGCAGGUUAAAUGUUUUGUAACUUUGAAAUACAAAGUCUAAUGCAUAAGCAG | 0.594 |
| ACUCAGGUCCUCUGGAAUAUUCUCUGCACUCUGUCCAUCUUCUGCUGCAGCUCUGCAUGCAAUUUAGUGGAAAAGAAGAGGAAGUCCAGACUUGAGUUGCCUGGCUACAU | 0.36 |

Sample 4
Target: Ras GTPase-activating protein-binding protein 1, C-terminal RGG region (G3BP1, Homo sapiens, UniProt Q13283)
Sequence of UniProt Q13283 (whole entry, looked up): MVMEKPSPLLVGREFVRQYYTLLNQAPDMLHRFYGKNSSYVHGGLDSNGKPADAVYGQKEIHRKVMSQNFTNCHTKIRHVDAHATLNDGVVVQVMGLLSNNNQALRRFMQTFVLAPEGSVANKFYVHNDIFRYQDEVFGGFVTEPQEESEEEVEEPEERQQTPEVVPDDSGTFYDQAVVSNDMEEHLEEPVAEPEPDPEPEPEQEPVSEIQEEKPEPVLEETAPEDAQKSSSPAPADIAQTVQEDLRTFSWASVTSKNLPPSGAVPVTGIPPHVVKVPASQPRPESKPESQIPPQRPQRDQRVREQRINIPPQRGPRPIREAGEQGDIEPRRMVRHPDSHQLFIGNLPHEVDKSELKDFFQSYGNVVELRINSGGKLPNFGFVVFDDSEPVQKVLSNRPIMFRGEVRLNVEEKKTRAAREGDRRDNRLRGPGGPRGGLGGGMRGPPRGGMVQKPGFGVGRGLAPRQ
Technique: RNA Bind-n-Seq
Molecule type: RNA
Matrix: in vitro
Concentration: 1 µM
Notes: whole 134-nt RNA, ends assumed
Together with: 150 mM KCl
Relative to: input library
Reading: higher = stronger binding
All sequences stand within: GGGAGUUCUACAGUCCGACGAUC … UGGAAUUCUCGGGUGUCAAGG
| Oligonucleotide | log2 enrichment |
| --- | --- |
| CACAGACAACACGCACCCACACAGACACGGAGGGAAGGGGUUGGGAUGGGGACAGGGUGCACAGCAGGGCGGGGUAGGACCCCAGCCCCU | -0.39 |
| UGGGAGGUGGAUUUUGUUUAUUUUUUUAGCUCAUUUCCAGGGGUCGGAAUUUUUUUUUAAUAUGUGUCAUGAAUAAAGUUGUUUUUGAAA | 2.62 |
| UCAAGUCCUGUGCUACACAUCGUAUGUACCGAAUCGGAAGGGGAAGGGGAAGGGAAAGUAUUAUGUUACGCCGUUCGGAUCUGCACUUCC | 1.38 |
| CCUCAAGUCCUGUGCUACACAUCGUAUGUACCGAAUCGGAAGGGAAGGGAAGGAAAGUAUUAUGUUACGCCGUUCGGAUCUGCACUUCCA | -1.45 |
| AGUCCUGUGCUACACAUCGUAUGUACCGAAUCAAAUUUUUUUAAAUUUAAACCCAAAAAAGUAUUAUGUUACGCCGUUCGGAUCUGCACU | -1.48 |
| CACAGACAACACGCACCCACACAGACACAGAGGGAAGGGGUUGGGAUGGGGACAGGGUGGACAGCAGGGCGGGGUAGGACCCCAGCCCCU | -0.625 |
| CCUGUGCUACACAUCGUAUGUACCGAAUCGGGGCCCCCCGGGCCCCCCGGCCCCCCGGGGAAAGUAUUAUGUUACGCCGUUCGGAUCUGC | -2 |
| AAGUCCUGUGCUACACAUCGUAUGUACCGAAUCGGGAAAAAGGGUGGGAAAAAGGGAAAGUAUUAUGUUACGCCGUUCGGAUCUGCACUU | 0.849 |
| AGUCACUUUUUAAUUUUAUUUAUUAUUUCUCCUCUUAGACCGCAGGAUGGAAACAAGCCCACUGAGACUAGUCAACCUCAAUCUAGCACA | -0.525 |
| ACCAUGCAGGUGGGCAUCUUUGGGAAGUGGGGCAAGGGGGGGAUAGGGAGGGGGGUAACACUUUGGGAACAGGUGGUCCCAGGUCGGUUC | 1.69 |
| GCAGGAAGUAAAAACAAAUGGAAAUGCUUCGGAUAGUGGCAGGGGUGGGGGUUGCUAAGGUAAGGGUGGGAUGGGAGUGGGUAAAGAGUU | 2.03 |
| AAGUCCUGUGCUACACAUCGUAUGUACCGAAUCGGGGCCCCGGGCCCCGGGCCCCGGAAAGUAUUAUGUUACGCCGUUCGGAUCUGCACU | -1.74 |
| UCAAGUCCUGUGCUACACAUCGUAUGUACCGAAUCGGUGGUUUUUGGAAAAAGGAAAGUAUUAUGUUACGCCGUUCGGAUCUGCACUUCC | -1.14 |
| ACCAUGCAGGUGGGCAUCUUUGGGAAGUGGGGCAAGGGGGGGAUAGGGAGGGGGGUAACACUAUGGGAACAGGUGGUCCCAGGUCGUUUC | 2.15 |

Sample 5
Target: RING finger protein unkempt homolog, zinc fingers 1-6, GST-SBP tag (UNK, Homo sapiens, UniProt Q9C0B0, residues 30-357)
Technique: RNA Bind-n-Seq
Molecule type: RNA
Matrix: in vitro
Concentration: not given
Notes: RNA with constant flanks, ends assumed
Relative to: input RNA pool
Reading: higher = stronger binding
All sequences stand within: GGGAGUUCUACAGUCCGACGAUC … CAACAGAGGAUUGAGCAUCA
Residues (chain): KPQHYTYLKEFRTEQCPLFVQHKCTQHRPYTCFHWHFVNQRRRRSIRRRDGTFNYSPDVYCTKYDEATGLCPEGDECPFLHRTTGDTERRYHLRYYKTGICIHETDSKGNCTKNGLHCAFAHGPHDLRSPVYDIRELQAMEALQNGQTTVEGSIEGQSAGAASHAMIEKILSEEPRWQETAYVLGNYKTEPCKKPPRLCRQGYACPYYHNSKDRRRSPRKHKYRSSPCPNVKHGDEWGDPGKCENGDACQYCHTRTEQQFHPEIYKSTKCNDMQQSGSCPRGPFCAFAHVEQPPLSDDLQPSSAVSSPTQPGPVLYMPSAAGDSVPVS
| Oligonucleotide | bound/input enrichment |
| --- | --- |
| UCCUCAACUAGAGAACAUGUUCAAAAGAAAGCUGCAGAAUGGAAAAUCAAGAUAGAUAUUACCGCAGAACUUCGAUAUGACCUGCCAGCAUCAUACAAGUUUCACAAAAAGAAAUCAGUG | 2.21 ratio |
| UAUUUAAUAUCACCUCUAGAUUUUGUACCUGAAGCCUUGUUUGGAAUUCUGGGCUUUCCCGAUGAUUUCUUUGUUAUCUUUUUGUUGCUUAUUUACAUCUCCAUUAUGUAUCGAGAAGUG | 1.62 ratio |
| UGUGGCUUUAACAUUUUAUGCAACUAUUUAUGAAGACCUCUGUUGUACCUGUAAUAAAUAUACCGAAAAAGCACAUACUUCGUAUGGUGAGCUUUAUGGUUUUGUGUGUGUGUUGGGGUU | 0.45 ratio |
| UCAGAACACAAAAUCUUAUUUCUUGGAGCAGGAGAAGCUGCACUUGGAAUUGCCAAUCUCACCGUUCUAUCAAUGGUGGAAAGUGGUCUCUCAGAAGAGGAGGCGCAGAGAAAGAUCUGG | 0.194 ratio |
| AGUAAGAAUCUACCAAUUCUCAGGCACCAAGGGCAGCAGUUGGCAAACAAGUUGCAAUGUCCUUUUGCCGAUGUACCUGCUGGUACAUAUCCUCGUAAAUUUAAUGAAACCCAAAUAAAG | 0.0777 ratio |
| GUGGAGUUGAUGUCCUUCCCUGGCUCGCUACAGACGCACUUCCGCAAGUGUUACAGCUCUUUCCGAAUUUGUCUAGCAGGUUUUCUGACUUCGGUCGGAAAACCCCUCCCAAUUUCACUG | 0.272 ratio |
| GAGGAGAAGCCGCCUAAUCCUAUGGAAGGCAUGACAGAGGAGCAGAAGGAACAUGAGGCCAUGAAGCCCGUGAACAUGUUUGACAAGCUCUCCAGGCACAGAGUCAUCCAACCCAUGGGG | 0.137 ratio |
| AGCACUGAGAGCAGUCCAUCCAUUGCCACAGUAUGUCAUAGUGAGGAAGUCAGGGAGACCUCCGAAAGCAAUACAAACCUUCAUAAUCGCACUGAGACAGAGCAUACUCCAGCAGUUUGU | 0.25 ratio |
| AAAGGCGCAAAGCUCAUCCUGAUCUUUCUGUUCCUAGGAGCCGUUCAGUCCAAUGCAUUGACCGUUAAUUUGACAGAUUCAAAGGGUACUUGCCUUUAUGCAGAAUGGGAGAUGAAUUUC | 0.125 ratio |
| AUCUAGUUAGGGGUAACCAUUAAUUUAUUUUAUAAAGAAAGGAAAUGCUGAAAGUCGUAUCCGUACUGAGUUUAGUUGGAGAAUUUAGAUAAGUAAGUAUCUUUUAGGUAAUUCUAAAAU | 21.1 ratio |
| GUUUUUUUUUUUUUUUUUUUUUUGCUGCUGACAUUGUAAUUAGCAUAUUCUCAACAGCAAUCCGGAAACAAUGCCUUAUAUAUGUGCUUUGGGGGGUUGAAGGGACAAAGUAGUAGCUGU | 1.32 ratio |
